{"data": "Literature values, collected from citations in different studies", "note": "Compare with care: the assays were run in different laboratories.", "sequence of UniProt P24530 (whole entry, looked up)": "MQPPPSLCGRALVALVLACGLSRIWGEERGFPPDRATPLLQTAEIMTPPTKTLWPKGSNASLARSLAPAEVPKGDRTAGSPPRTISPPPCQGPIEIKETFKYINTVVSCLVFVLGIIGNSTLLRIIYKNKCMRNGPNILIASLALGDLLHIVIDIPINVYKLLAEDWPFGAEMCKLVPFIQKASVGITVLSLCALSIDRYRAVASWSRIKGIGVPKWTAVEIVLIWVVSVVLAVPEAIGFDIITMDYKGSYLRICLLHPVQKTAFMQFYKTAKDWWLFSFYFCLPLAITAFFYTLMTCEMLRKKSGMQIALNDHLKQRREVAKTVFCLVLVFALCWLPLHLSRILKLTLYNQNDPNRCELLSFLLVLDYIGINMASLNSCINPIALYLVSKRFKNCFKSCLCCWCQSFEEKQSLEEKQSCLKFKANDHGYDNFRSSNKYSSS"}
{"SMILES": "Cn1c(=O)oc2ccc(-c3ccc(C[C@@H](C#N)NC(=O)[C@@H]4CNCCCO4)cc3)cc21", "test system": "human", "setting": "10 mg, phase II", "scale": "reference: placebo", "endpoint": "skin adverse event incidence", "value": "no effect"}
{"SMILES": "O=c1ncccn1[C@@H]1O[C@H](CO)[C@@H](O)[C@H]1O", "target or system": "Hey", "endpoint": "IC50", "value": "64.7 µM"}
{"SMILES": "O=C(O)CN1CCN(CC(=O)O)CCN(CC(=O)O)CC1", "target or system": "Cu(II)", "setting": "stability constant", "endpoint": "log K", "value": 19.8}
{"SMILES": "COc1ccc(Cc2nccc3cc(OC)c(OC)cc23)cc1OC", "target or system": "A549", "test": "oxygen consumption rate", "endpoint": "IC50", "value": "15.4 µM"}
{"SMILES": "COC[C@@H](c1ccc(C(F)(F)F)cc1)N1CCN(C2(C)CCN(C(=O)c3c(C)ncnc3C)CC2)C[C@@H]1C", "test system": "human, HIV infected", "setting": "dose not given, after short monotherapy, 14 days", "endpoint": "duration of viral suppression", "value": "2 to 3 days"}
{"SMILES": "CCCCN1CCCC1CNC(=O)c1cc(C#N)c2ccccc2c1OC (centres unmarked)", "target or system": "Toxoplasma gondii", "test": "parasite growth", "setting": "concentration not given, published screen", "endpoint": "activity class", "value": "inactive"}
{"SMILES": "CCCC[C@@H](NC(=O)[C@@H](Cc1cn(C(=O)OC)c2ccccc12)NC(=O)[C@H](CC(C)(C)C)NC(=O)N1[C@H](C)CCC[C@@H]1C)C(=O)O", "target or system": "EDNRB (Homo sapiens, UniProt P24530)", "setting": "human receptors", "scale": "reference: ETB over ETA", "endpoint": "selectivity ratio", "value": "100 fold"}
{"SMILES": "Cn1cncc1[C@@](N)(c1ccc(Cl)cc1)c1ccc2c(c1)c(-c1cccc(Cl)c1)cc(=O)n2C", "test system": "human adults, plasma", "setting": "300 mg, 7, 9", "endpoint": "Cave", "value": "~350 ng/mL"}
{"note": "Excerpt of the above:"}
{"SMILES": "COc1ccc(Cc2nccc3cc(OC)c(OC)cc23)cc1OC", "target or system": "A549", "test": "oxygen consumption rate", "endpoint": "IC50", "value": "15.4 µM"}
